Results pooled from the literature.
Protocols differ between the studies behind these lines. ± gives the spread as reported.

| Structure (SMILES) | cell line | read-out | technique | time | pH | setting | IC50 [µM] |
| --- | --- | --- | --- | --- | --- | --- | --- |
| CC[C@H](C)[C@H](NC(=O)[C@H](CCCNC(=N)N)NC(=O)[C@H](CCCNC(=N)N)NC(=O)[C@H](CCCNC(=N)N)NC(=O)[C@@H](NC(=O)[C@@H](NC(=O)[C@H](C)NC(=O)[C@H](CCCNC(=N)N)NC(=O)[C@H](CCCNC(=N)N)NC(=O)[C@H](CCCNC(=N)N)NC(=O)[C@@H]1CCCN1C(=O)[C@@H](N)CCCNC(=N)N)[C@@H](C)O)[C@@H](C)O)C(=O)N[C@H](C(=O)N[C@H](C(=O)NCC(=O)N[C@H](C(=O)N[C@@H](CCCNC(=N)N)C(=O)N[C@@H](CCCNC(=N)N)C(=O)N[C@@H](CCCNC(=N)N)C(=O)N[C@@H](CCCNC(=N)N)C(N)=O)[C@@H](C)O)[C@@H](C)O)[C@@H](C)O | Hs68 | cell viability | CellTiter-Blue | 24 h | – | serum-free medium | > 100 |
| O=C(CCCN1CCC2(CC1)C(=O)NCN2c1ccccc1)N(Cc1ccsc1)c1ccccc1 | MIA PaCa-2 | cell growth or viability | CCK-8 | 72 h | – | – | 17 |
| Cc1nc([C@H](NC(=O)c2ccc(-c3ccc(Cl)cc3)[nH]2)[C@@H]2CCCCN2)sc1CO | MAGI-CCR5 and HL2/3 cells | HIV-1 Env-mediated cell fusion | beta-galactosidase | – | – | – | 10.8 |
| C[C@H]1C(OCCCCC[P+](c2ccccc2)(c2ccccc2)c2ccccc2)O[C@@H]2O[C@@]3(C)CCC4[C@H](C)CCC1[C@]42OO3 (some centres unmarked) | T24 | cell growth or viability | MTT | 72 h | – | – | 0.348 |
| COC(=O)CC[C@@H](NC(=O)[C@@H](Cc1ccc(OP(=O)(O)O)cc1)NC(=O)[C@@H](Cc1ccccc1)NC(=O)[C@@H](Cc1ccccc1)NC(=O)Cc1ccc2ccccc2c1)C(=O)OC | OVCAR-4 | cell growth or viability | – | – | – | – | > 200 |
| C[C@H]1C(OCCCCCCCC[P+](c2ccccc2)(c2ccccc2)c2ccccc2)O[C@@H]2O[C@@]3(C)CCC4[C@H](C)CCC1[C@]42OO3 (some centres unmarked) | T24 | cell growth or viability | MTT | 72 h | – | – | 0.0569 |
| O=C(C[P+]([Au-][Cl])(c1ccccc1)c1ccccc1)[O][Ti+2][O]C(=O)C[P+]([Au-][Cl])(c1ccccc1)c1ccccc1.c1cc[cH-]c1.c1cc[cH-]c1 | UO-31 | cell viability | XTT | 24 h | – | – | 6.3 |
| CC(C)C[C@H](NC(=O)[C@H](CC(C)C)NC(=O)[C@H](CCC(=O)O)NC(=O)[C@H](Cc1c[nH]cn1)NC(=O)[C@H](CC(C)C)NC(=O)[C@H](Cc1c[nH]cn1)NC(=O)[C@H](CCC(=O)O)NC(=O)[C@H](CC(C)C)NC(=O)[C@H](CC(C)C)NC(=O)[C@H](CCC(=O)O)NC(=O)[C@H](Cc1c[nH]cn1)NC(=O)[C@@H](N)CC(C)C)C(=O)N[C@@H](CCC(=O)O)C(=O)N[C@@H](Cc1c[nH]cn1)C(N)=O | 4T1 | cell growth or viability | MTT | – | pH 7.4 | – | > 100 |
| C[C@H]1[C@H](OC(=O)CCC(=O)OCCc2ccc(O)cc2)O[C@@H]2O[C@@]3(C)CC[C@H]4[C@H](C)CC[C@@H]1[C@@]24OO3 | SK-MEL-24 | cell growth or viability | MTT | 24 h | – | – | 1.5 |
| CCC(C)C1OC(=O)C(NC(=O)c2cccc(NC=O)c2O)C(C)OC(=O)C(C(C)CC)OC(=O)C(C)(C)C(O)C(Cc2ccccc2)OC1=O (centres unmarked) | NCM460 | cell growth or viability | CCK-8 | 72 h | – | – | > 50 |
| CC1=CC(C)=[N+]2C1=Cc1ccc(CCC(=O)NCC3C[NH][Pt]([Cl])([Cl])[NH]3)n1[B-]2(F)F (centres unmarked) | KB-3-1 single cells in 3D Matrigel | cytotoxicity | CellTiter-Glo | 1 days | – | pre-grown 1 day | 53.8 ± 7.1 |
| CC(=O)O[C@H]1C[C@H](O[C@H]2[C@@H](O)C[C@H](O[C@H]3[C@@H](O)C[C@H](O[C@H]4CC[C@@]5(C)[C@H](CC[C@@H]6[C@@H]5CC[C@]5(C)[C@@H](C7=CC(=O)OC7)[C@@H](O)C[C@]65O)C4)O[C@@H]3C)O[C@@H]2C)O[C@H](C)[C@H]1O[C@@H]1O[C@H](CO)[C@@H](O)[C@H](O)[C@H]1O | BEAS-2B | cell growth or viability | MTT | 48 h | – | – | 0.92 |
| CC[C@@]1(O)C(=O)OCc2c1cc1n(c2=O)Cc2c-1nc1cc(F)c(C)c3c1c2[C@@H](NC(=O)CO)CC3 | MDA-MB-468 | cell growth or viability | ATP luminescence | 5 days | – | – | 0.0005 |
| CC(=O)N[C@@H](CC(C)C)C(=O)N[C@@H](C)C(=O)N1CCC[C@H]1C(=O)N1CCC[C@H]1C(=O)N[C@@H](CC(C)C)C(=O)N[C@@H](Cc1c[nH]cn1)C(=O)N[C@@H](CO)C(=O)N[C@H](C(=O)N[C@@H](C)C(N)=O)[C@@H](C)OP(=O)(O)O | U-266 | cell growth or viability | MTT | 72 h | – | – | 0.97 |
| CCOC(=O)[C@@H]1Cc2c(cc([N+](=O)[O-])cc2[N+](=O)[O-])[C@H](O)[C@]12C(=O)Nc1ccc(Cl)cc12 (single isomer, unassigned) | U-87 MG | cell growth or viability | MTT | 24 h | – | – | 6.1 |
| N[C@H](CC[As](O)O)C(=O)O | HCC1569 | cell viability | – | – | – | – | 3 |
| Cc1cc(C)c(-n2ccn(-c3c(C)cc(C)cc3C)c2=[Se])c(C)c1.[Cl][Au] | H157 lung carcinoma cells | cell viability | MTT | 72 h | – | – | 0.5 ± 0.05 |
| COc1cc(C=CC(=O)CC(=O)C=Cc2ccc(OC(=O)CCC(=O)OC3OC4OC5(C)CCC6C(C)CCC(C3C)C46OO5)c(OC)c2)ccc1OC(=O)CCC(=O)OC1OC2OC3(C)CCC4C(C)CCC(C1C)C24OO3 (centres unmarked) | SK-MEL-3 | cell viability | MTT | 24 h | – | – | 3.43 ± 0.16 |
| COC(=O)C1CN1S(=O)(=O)c1c(C)cc(C)cc1C (centres unmarked) | HT-1080 | cell growth or viability | MTT | 48 h | – | – | 17 |
| CC(=O)c1ccc2c(c1)N(CCCN(C)C)c1ccccc1S2 | Vero 76 | cytotoxicity | – | – | – | – | 28.8 ± 11 |
| CCCCCCCCCCCCN(CCCCCCCCCCCC)C1=[S+][Au-]2([S]1)[c]1ccccc1-c1cccc[c]12 | UWB1289 | cell growth or viability | MTT | 72 h | – | – | > 100 |
| [CH3][Ti+2][O]C(=O)c1ccc([S][Au][PH](c2ccccc2)(c2ccccc2)[c-]2cccc2)cc1.[Fe+2].c1cc[cH-]c1.c1cc[cH-]c1.c1cc[cH-]c1 | renal proximal tubule cells | cytotoxicity | XTT | 72 h | – | – | 3.76 ± 0.21 |
| O=C(O)c1ccc([PH]([Au][Cl])(c2ccccc2)c2ccccc2)cc1 | T24 | cell growth or viability | resazurin | 72 h | – | – | 89.9 |

Repeated from above:
| Structure (SMILES) | cell line | read-out | technique | time | pH | setting | IC50 [µM] |
| --- | --- | --- | --- | --- | --- | --- | --- |
| Cc1nc([C@H](NC(=O)c2ccc(-c3ccc(Cl)cc3)[nH]2)[C@@H]2CCCCN2)sc1CO | MAGI-CCR5 and HL2/3 cells | HIV-1 Env-mediated cell fusion | beta-galactosidase | – | – | – | 10.8 |
| C[C@H]1C(OCCCCC[P+](c2ccccc2)(c2ccccc2)c2ccccc2)O[C@@H]2O[C@@]3(C)CCC4[C@H](C)CCC1[C@]42OO3 (some centres unmarked) | T24 | cell growth or viability | MTT | 72 h | – | – | 0.348 |
